Published values pooled from the literature.
Each line is one published result; not all experiments were run side by side. Numbers after ± are the reported error.

Compound | tested on | assay | test system | conditions | scale | measurement | result
COC1OC(C)C(OS(=O)(=O)O)C(OC2OC(C)C(OS(=O)(=O)O)C(OC3OC(C)C(OS(=O)(=O)O)C(OS(=O)(=O)O)C3O)C2O)C1O (stereo not shown) |  |  | human plasma | 128 µg/mL |  | prothrombin time | 14.3 ± 0.4 s
CC[n+]1cccc2cc(/C=N/NC(=O)c3ccc4ccc5ccc(C(=O)N/N=C/c6ccc7c(ccc[n+]7CC)c6)nc5c4n3)ccc21 | MYC parallel G4 DNA | FRET melting |  | 1 µM, DNA 0.2 µM |  | ΔTm | 21 ± 0.2 °C
Cc1ncsc1-c1ccc(C(C)NC(=O)C2CC(O)CN2C(=O)C(NC(=O)CCCCCCCCCCN2CCCC(Nc3ncc(Cl)c(Nc4ccccc4S(=O)(=O)C(C)C)n3)C2)C(C)(C)C)cc1 (stereo not shown) | 22Rv1 | RNA-seq, measured: RWDD2A mRNA |  | concentration not given | baseline: DMSO | log2 fold change | -1.51
Nc1ncc(-c2cc(-c3cnn(CC(F)(F)F)c3)ncc2F)nc1C(=O)NC1CNCC(F)C1 (stereo not shown) | YSK1 | KINOMEscan |  | 1 µM | baseline: DMSO control | remaining binding | 81%
COc1ccc2c(C)nc(Nc3nc(O)cc(-c4ccccc4)n3)nc2c1 | Mus musculus | gene silencing, high-content imaging | LDR reporter GFP cells | retest run 2 |  | AC50 | 3.98 µM
O=C(N/N=C/c1cc[n+](CC2CC2)c2ccccc12)C(=O)N/N=C/c1cc[n+](CC2CC2)c2ccccc12 | MYC parallel G4 DNA | FRET melting |  | 1 µM, DNA 0.2 µM, with: duplex DNA competitor 10 µM |  | ΔTm | 2.7 ± 0.6 °C
COc1cccc(/C=N/Nc2nc(Nc3ccccc3)nc(-n3nc(C)cc3C)n2)c1O | Mus musculus | gene silencing, high-content imaging | LDR reporter GFP cells | 30 h, retest run 1 |  | Emax | 83%
C[n+]1ccc(/C=N/NC(=O)c2ccc3ccc4ccc(C(=O)N/N=C/c5cc[n+](C)c6ccccc56)nc4c3n2)c2ccccc21 | MYC parallel G4 DNA | FRET melting |  | 1 µM, DNA 0.2 µM, with: duplex DNA competitor 10 µM |  | ΔTm | 7.8 ± 0.7 °C
C=CC(=O)Nc1cccc(Cn2ncc3cnc(Nc4cnn(CCOC)c4)nc32)c1 | human FLT3-autoinhibited | KINOMEscan |  | 100 nM | baseline: control | binding | 75%
COC1OC(C)C(OC2OC(C)C(O)C(OC3OC(C)C(OC4OC(C)C(O)C(OS(=O)(=O)O)C4OS(=O)(=O)O)C(OS(=O)(=O)O)C3OS(=O)(=O)O)C2OS(=O)(=O)O)C(OS(=O)(=O)O)C1OS(=O)(=O)O (stereo not shown) |  |  | human plasma | 128 µg/mL | baseline: control | prothrombin time prolongation | 1.03 fold
O=C(N/N=C/c1ccc(C[n+]2ccccc2)cc1)c1cc(C(=O)N/N=C/c2ccc(C[n+]3ccccc3)cc2)ncn1 | hp2 hairpin duplex DNA | FRET melting |  | 1 µM, with: ds26 10 µM |  | ΔTm | 0.3 ± 0.1 °C
CCN(CC)CC(=O)Nc1cccc(-n2cc(-c3ccc4ccc(-c5cn(-c6cccc(NC(=O)CN(CC)CC)c6)nn5)cc4c3)nn2)c1 | RCC4 | PCR angiogenesis array, measured: NRP2 |  | 5 x IC50, 4 h, normoxia | baseline: untreated | fold regulation | -1.35
C[n+]1cccc2cc(/C=N/NC(=O)C(=O)N/N=C/c3ccc4c(ccc[n+]4C)c3)ccc21 | hp2 hairpin duplex DNA | FRET melting |  | 1 µM |  | ΔTm | 0.8 ± 0.1 °C
COC1CN([C@H]2CC[C@H]([C@@]3(C)Oc4c(Cl)cc(C(=O)NCc5c(SC)cc(C)[nH]c5=O)c(C)c4O3)CC2)C1 |  | RNA-seq, measured: HAS1 | human, whole blood | dose not given, 24 h | baseline: pretreatment baseline | log2 fold change | 1.18
N=C(S)N/N=C/c1ncc(C(F)(F)F)cc1Cl | Mus musculus | gene silencing, high-content imaging | LDR reporter GFP cells | 30 h, confirmation, mean of two runs |  | Emax | 42%
CNS(=O)(=O)Nc1nccc(Cc2c(C)c3ccc(Oc4ncccc4F)cc3oc2=O)c1F | HuP-T4 | cell viability |  | 7 days |  | IC50 | 0.00908 µM

Excerpt of the above:
Compound | tested on | assay | test system | conditions | scale | measurement | result
C=CC(=O)Nc1cccc(Cn2ncc3cnc(Nc4cnn(CCOC)c4)nc32)c1 | human FLT3-autoinhibited | KINOMEscan |  | 100 nM | baseline: control | binding | 75%
COC1CN([C@H]2CC[C@H]([C@@]3(C)Oc4c(Cl)cc(C(=O)NCc5c(SC)cc(C)[nH]c5=O)c(C)c4O3)CC2)C1 |  | RNA-seq, measured: HAS1 | human, whole blood | dose not given, 24 h | baseline: pretreatment baseline | log2 fold change | 1.18
